Measurements from different studies.
Each line is one published result; not all experiments were run side by side.
Sequence of UniProt P78527 (whole entry, looked up): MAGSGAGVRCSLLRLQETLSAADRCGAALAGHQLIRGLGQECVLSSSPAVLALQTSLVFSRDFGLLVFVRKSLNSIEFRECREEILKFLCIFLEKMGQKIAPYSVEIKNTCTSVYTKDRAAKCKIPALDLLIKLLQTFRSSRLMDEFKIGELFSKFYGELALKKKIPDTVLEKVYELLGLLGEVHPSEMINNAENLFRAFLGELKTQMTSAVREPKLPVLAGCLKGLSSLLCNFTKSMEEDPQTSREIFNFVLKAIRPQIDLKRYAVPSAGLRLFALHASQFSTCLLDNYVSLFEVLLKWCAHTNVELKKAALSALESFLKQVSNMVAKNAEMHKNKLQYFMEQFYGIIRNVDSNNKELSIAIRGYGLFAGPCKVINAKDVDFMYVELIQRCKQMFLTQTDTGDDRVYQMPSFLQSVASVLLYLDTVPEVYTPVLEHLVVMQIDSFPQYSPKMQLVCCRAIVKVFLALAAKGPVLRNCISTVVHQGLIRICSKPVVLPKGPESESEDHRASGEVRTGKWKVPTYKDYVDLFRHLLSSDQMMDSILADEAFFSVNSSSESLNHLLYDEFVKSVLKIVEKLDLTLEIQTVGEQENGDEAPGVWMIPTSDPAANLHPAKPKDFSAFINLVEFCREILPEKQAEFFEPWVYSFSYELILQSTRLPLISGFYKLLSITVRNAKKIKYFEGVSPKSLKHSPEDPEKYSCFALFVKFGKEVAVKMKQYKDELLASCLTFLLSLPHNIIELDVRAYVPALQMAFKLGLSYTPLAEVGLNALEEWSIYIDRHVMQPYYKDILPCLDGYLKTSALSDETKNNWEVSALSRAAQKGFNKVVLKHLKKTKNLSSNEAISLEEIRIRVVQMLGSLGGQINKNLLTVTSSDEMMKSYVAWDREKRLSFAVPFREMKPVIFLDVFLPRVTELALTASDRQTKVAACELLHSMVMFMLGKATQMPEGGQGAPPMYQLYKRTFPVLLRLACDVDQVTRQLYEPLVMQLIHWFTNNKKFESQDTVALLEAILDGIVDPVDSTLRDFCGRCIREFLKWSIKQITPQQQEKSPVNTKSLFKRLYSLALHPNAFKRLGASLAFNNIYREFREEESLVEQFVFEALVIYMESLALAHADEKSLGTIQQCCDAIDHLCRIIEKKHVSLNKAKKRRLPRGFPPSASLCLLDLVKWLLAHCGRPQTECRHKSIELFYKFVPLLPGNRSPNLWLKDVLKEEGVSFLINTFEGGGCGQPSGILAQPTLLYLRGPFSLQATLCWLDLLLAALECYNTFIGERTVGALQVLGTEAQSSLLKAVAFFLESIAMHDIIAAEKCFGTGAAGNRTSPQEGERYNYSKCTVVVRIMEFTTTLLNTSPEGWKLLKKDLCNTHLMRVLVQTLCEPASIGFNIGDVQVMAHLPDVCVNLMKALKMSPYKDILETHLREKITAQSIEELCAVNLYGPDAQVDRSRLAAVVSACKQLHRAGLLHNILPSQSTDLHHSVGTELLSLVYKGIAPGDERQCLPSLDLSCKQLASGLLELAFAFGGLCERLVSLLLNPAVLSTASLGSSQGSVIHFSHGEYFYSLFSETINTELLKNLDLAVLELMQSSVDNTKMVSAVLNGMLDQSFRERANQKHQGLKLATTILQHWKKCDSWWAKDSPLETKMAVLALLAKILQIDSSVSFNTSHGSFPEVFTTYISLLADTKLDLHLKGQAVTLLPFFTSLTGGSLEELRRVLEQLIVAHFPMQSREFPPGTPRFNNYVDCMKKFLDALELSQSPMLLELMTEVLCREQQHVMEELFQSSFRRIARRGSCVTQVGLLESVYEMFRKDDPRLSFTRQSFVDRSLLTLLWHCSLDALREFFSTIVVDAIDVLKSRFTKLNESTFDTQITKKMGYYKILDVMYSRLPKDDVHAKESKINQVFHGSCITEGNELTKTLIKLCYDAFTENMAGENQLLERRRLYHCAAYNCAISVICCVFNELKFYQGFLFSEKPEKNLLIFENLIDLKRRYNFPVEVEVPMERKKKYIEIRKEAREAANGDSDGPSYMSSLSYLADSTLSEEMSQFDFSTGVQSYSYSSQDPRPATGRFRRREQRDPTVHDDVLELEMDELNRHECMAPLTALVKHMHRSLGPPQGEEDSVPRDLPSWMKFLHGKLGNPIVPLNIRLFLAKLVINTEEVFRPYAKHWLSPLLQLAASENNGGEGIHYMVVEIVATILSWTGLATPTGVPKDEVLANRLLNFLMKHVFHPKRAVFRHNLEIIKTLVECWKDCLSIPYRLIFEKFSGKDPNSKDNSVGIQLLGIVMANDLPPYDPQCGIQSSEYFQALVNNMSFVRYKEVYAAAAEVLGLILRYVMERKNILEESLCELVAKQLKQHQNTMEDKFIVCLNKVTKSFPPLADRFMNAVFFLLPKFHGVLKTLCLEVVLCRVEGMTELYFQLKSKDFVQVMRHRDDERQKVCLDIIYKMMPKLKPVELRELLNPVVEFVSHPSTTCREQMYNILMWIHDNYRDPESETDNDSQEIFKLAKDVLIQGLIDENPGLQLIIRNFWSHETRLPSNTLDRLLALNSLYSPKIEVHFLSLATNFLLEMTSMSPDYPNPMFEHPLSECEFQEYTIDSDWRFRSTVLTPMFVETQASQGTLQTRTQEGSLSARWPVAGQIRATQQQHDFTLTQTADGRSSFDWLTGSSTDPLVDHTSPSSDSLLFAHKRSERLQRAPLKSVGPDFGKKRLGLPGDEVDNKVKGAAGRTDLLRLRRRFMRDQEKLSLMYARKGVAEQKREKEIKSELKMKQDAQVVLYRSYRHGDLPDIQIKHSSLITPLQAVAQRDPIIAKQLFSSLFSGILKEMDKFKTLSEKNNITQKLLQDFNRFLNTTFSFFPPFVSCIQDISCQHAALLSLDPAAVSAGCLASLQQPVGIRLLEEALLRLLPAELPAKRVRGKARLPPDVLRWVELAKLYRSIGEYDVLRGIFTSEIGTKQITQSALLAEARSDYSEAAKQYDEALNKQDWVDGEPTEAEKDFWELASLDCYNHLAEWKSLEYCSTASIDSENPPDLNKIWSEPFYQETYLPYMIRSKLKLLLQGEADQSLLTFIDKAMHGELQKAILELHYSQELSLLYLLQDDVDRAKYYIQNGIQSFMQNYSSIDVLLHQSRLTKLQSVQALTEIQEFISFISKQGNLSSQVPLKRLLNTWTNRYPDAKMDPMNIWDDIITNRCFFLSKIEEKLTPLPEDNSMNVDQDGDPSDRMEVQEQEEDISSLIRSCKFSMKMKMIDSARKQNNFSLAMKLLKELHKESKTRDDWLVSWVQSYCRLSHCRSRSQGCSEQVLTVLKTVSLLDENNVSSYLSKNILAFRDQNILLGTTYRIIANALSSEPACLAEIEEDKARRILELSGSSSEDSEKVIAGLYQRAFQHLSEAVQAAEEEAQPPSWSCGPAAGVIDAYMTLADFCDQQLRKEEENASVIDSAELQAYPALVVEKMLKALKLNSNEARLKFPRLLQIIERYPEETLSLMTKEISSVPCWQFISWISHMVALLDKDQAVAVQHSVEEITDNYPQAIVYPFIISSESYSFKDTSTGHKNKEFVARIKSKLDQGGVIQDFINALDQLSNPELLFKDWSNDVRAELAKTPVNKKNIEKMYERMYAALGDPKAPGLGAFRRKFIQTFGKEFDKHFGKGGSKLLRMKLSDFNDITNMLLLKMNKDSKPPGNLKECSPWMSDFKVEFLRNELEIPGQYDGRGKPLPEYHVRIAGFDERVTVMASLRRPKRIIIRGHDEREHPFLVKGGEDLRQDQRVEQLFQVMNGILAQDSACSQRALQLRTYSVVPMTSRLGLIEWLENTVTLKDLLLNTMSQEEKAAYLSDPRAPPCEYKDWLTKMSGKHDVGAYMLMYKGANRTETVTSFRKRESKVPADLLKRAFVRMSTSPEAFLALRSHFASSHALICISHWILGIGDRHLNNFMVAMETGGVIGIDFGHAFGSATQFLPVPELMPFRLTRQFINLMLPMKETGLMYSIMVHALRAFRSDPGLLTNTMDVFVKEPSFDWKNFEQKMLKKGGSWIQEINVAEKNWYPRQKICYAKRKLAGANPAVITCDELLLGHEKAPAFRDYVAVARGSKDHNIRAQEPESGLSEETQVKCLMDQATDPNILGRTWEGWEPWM
Sequence of UniProt O96017 (whole entry, looked up): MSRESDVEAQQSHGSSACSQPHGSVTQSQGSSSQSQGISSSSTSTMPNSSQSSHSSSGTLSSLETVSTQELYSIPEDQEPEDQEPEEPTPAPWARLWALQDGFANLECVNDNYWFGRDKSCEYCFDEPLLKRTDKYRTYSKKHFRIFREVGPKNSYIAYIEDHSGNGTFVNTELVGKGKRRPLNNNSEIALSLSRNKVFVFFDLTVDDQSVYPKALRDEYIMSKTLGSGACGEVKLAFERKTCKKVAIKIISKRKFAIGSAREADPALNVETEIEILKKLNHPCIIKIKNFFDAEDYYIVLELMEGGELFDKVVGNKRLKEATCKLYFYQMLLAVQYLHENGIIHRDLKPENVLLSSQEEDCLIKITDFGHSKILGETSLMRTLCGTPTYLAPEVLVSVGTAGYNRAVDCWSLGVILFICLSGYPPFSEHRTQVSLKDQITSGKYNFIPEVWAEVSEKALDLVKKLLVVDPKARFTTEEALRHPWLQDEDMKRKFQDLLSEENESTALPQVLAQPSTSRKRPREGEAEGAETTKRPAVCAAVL

| SMILES | tested on | assay | system | conditions | endpoint | value |
| --- | --- | --- | --- | --- | --- | --- |
| C/C(=N\c1ccc(O)cc1)c1cc2ccccc2n1C |  |  | male Sprague-Dawley rat, plasma | intravenous, 5 mg/kg, 24 h, single dose | concentration | 9.6 ng/mL |
| Cc1noc(C)c1Cn1cc(N2C(=O)CN(Cc3cccc(O)c3)C2=O)cn1 |  |  | male Sprague-Dawley rat, plasma | oral, 100 mg/kg, 2 h, single dose | concentration | 28.4 ng/mL |
| C=CC(=O)N1CCC(COCC(=O)N2CCN(c3nc(-c4cnc(N)nc4C(F)F)nc(N4CCOC[C@@H]4C)n3)CC2)CC1 | CHEK2 (Homo sapiens, UniProt O96017) | binding, competition with immobilised ligand |  | 1 µM | remaining binding | 94% |
| COc1cccc(-c2n[nH]c(SCc3ccccn3)n2)c1OC |  |  | female Sprague-Dawley rat, plasma | oral, 10 mg/kg, 15 min, single dose | concentration | 14900 ng/mL |
| NCc1cc2c(cc1F)C(=O)N(C1CCC(=O)NC1=O)C2 (centres unmarked) |  |  | male cynomolgus monkey, plasma | oral, 0.3 mg/kg, 6 h | concentration | 0.31 ng/mL |
| CCOC(=O)[C@@]12C[C@@H]1[C@@H](n1ccc3c(NC)nc(C#Cc4ccc(Cl)s4)nc31)[C@H](O)[C@@H]2O |  |  | male Sprague-Dawley rat, plasma | oral, 3 mg/kg, 4 h | concentration | 13 ng/mL |
| CC(C)(Nc1nc(-c2ccccn2)nc2ccccc12)c1ccccn1 |  |  | female BALB/c mouse, plasma | intravenous, 1 mg/kg, 4 h | concentration | 41 ng/mL |
| CCc1cc(-c2noc(-c3cc(OC)nc(C4CCCC4)c3)n2)cc(C)c1OC[C@@H](O)CO |  |  | Wistar rat, plasma | oral, 10 mg/kg, 3 h, single dose | concentration | 1260 ng/mL |
| O=C1CCC(N2Cc3cc(CO)c(F)cc3C2=O)C(=O)N1 (centres unmarked) |  |  | male CD-1 mouse, plasma | intravenous, 1 mg/kg, 30 min | concentration | 149 ng/mL |
| CCOC(=O)c1cc(Cl)cc(NC(=O)c2sc(Cl)cc2S(=O)(=O)N(C)c2ccc(OCC)c(OC)c2)c1 |  |  | male C57BL/6 mouse, brain | intraperitoneal, 10 mg/kg, 2 h | concentration | 5.73 ng/g |
| O=c1nc(N2CCN(CC3CCCCC3)CC2)sc2c([N+](=O)[O-])cc(C(F)(F)F)cc12 |  |  | CD-1 mouse, plasma | oral, 100 mg/kg, 1 h | concentration | 2210 ng/mL |
| COc1cc(-c2cncc3c2CN(C)Cc2cc(N4CCNCC4)ccc2-3)cc(OC)c1OC | HCK (Homo sapiens, UniProt P08631) | enzyme activity, inhibitor |  | 1 µM | remaining activity | 102% |
| COc1ccc2c(=O)n(C)c(-c3ccccc3)nc2c1 |  |  | male Sprague-Dawley rat, spleen | oral, 30 mg/kg, 2 h | concentration | 2.36 ng/mL |
| CNc1ncc2c(/C=C/C(=O)N3CCC(OC)CC3)nn(Cc3cccc(C(F)(F)F)c3)c2n1 | PRKDC (Homo sapiens, UniProt P78527) | enzyme activity, inhibitor, radiometric |  | 1 µM | remaining activity | 98% |

For quick reference, copied from above:
| SMILES | tested on | assay | system | conditions | endpoint | value |
| --- | --- | --- | --- | --- | --- | --- |
| COc1cc(-c2cncc3c2CN(C)Cc2cc(N4CCNCC4)ccc2-3)cc(OC)c1OC | HCK (Homo sapiens, UniProt P08631) | enzyme activity, inhibitor |  | 1 µM | remaining activity | 102% |
| NCc1cc2c(cc1F)C(=O)N(C1CCC(=O)NC1=O)C2 (centres unmarked) |  |  | male cynomolgus monkey, plasma | oral, 0.3 mg/kg, 6 h | concentration | 0.31 ng/mL |
